# Results pooled from the literature.
# Protocols differ between the studies behind these lines. ± marks the error that the study gave.
SMILES,organism,assay,system,setting,EC50
c1ccc(Nc2ncnc3ccc(-c4cccc(N5CCOCC5)c4)cc23)cc1,Trypanosoma cruzi,"intracellular amastigote growth, β-galactosidase CPRG","3T3, Tulahuen, β-galactosidase-expressing",96 h,6700 nM
O=C(CCN(CCC(=O)N[C@@H](Cc1c[nH]c2ccccc12)C(=O)O)C(=O)CCN(CCC(=O)N(CCC(=O)N[C@@H](Cc1c[nH]c2ccccc12)C(=O)O)CCC(=O)N[C@@H](Cc1c[nH]c2ccccc12)C(=O)O)C(=O)[C@H]1C[C@@H](C(=O)N(CCC(=O)N(CCC(=O)N[C@@H](Cc2c[nH]c3ccccc23)C(=O)O)CCC(=O)N[C@@H](Cc2c[nH]c3ccccc23)C(=O)O)CCC(=O)N(CCC(=O)N[C@@H](Cc2c[nH]c3ccccc23)C(=O)O)CCC(=O)N[C@@H](Cc2c[nH]c3ccccc23)C(=O)O)C[C@@H](C(=O)N(CCC(=O)N(CCC(=O)N[C@@H](Cc2c[nH]c3ccccc23)C(=O)O)CCC(=O)N[C@@H](Cc2c[nH]c3ccccc23)C(=O)O)CCC(=O)N(CCC(=O)N[C@@H](Cc2c[nH]c3ccccc23)C(=O)O)CCC(=O)N[C@@H](Cc2c[nH]c3ccccc23)C(=O)O)C1)N[C@@H](Cc1c[nH]c2ccccc12)C(=O)O,respiratory syncytial virus,viral replication,"HeLa cells, Long",,6700 ± 190 nM
CN1CCN(S(=O)(=O)c2ccc(-c3ccc4ncnc(Nc5ccccc5)c4c3)cc2)CC1,Trypanosoma cruzi,"intracellular amastigote growth, β-galactosidase CPRG","3T3, Tulahuen, β-galactosidase-expressing",96 h,> 50000 nM
COc1ccccc1-c1n[nH]c2nc(N[C@H]3CC[C@H](NS(=O)(=O)CC(C)C)CC3)ncc12,Leishmania donovani,cell growth,"promastigotes, LdBOB CYC9 overexpressing",,0.89 ± 0.02 nM
COCc1cc(O)c(=O)c(O)c(C(=O)OC)c1C(=O)OC,Hepatitis B virus,"viral replication, inhibitor, qPCR",HepDES19,,15000 nM
O=C(c1ccc(-c2ccc3ncnc(Nc4ccc(OCc5cccc(F)c5)c(Cl)c4)c3c2)cc1)N1CCCCC1,Trypanosoma cruzi,"intracellular amastigote growth, β-galactosidase CPRG","3T3, Tulahuen, β-galactosidase-expressing",96 h,> 50000 nM
COC(=O)c1c(CCl)cc(O)c(=O)c(O)c1C(=O)OC,Hepatitis B virus,"viral replication, inhibitor, qPCR",HepDES19,,400 nM
CC(=O)CCC1C(=O)NC(C(C)C)C(=O)NC(Cc2cc(O)cc(F)c2)C(=O)N2CCCC(N2)C(=O)OC(C(C)=CC=CC(=O)N2CCCCO2)CC=CC=CC(O)C(C)C1O (centres unmarked),Hepatitis C virus,viral replication,"Huh7, Con1 replicon",10% human serum,15 ± 2 nM
CC(C)(C)OCc1ccc(-c2ccc3ncnc(Nc4ccc(OCc5cccc(F)c5)c(Cl)c4)c3c2)cc1,Trypanosoma cruzi,"intracellular amastigote growth, β-galactosidase CPRG","3T3, Tulahuen, β-galactosidase-expressing",96 h,2200 nM
Cc1cc(O)c(=O)c(O)cc1S(=O)(=O)c1ccccc1,Hepatitis B virus,"viral replication, inhibitor, qPCR",HepDES19,,400 nM
C[C@@]1(O)[C@H](O)[C@@H](CO)O[C@H]1n1ccc2c(N)ncnc21,Zika virus,viral replication,"Huh-7.5.1, nanoluciferase reporter",48 h,7760 nM
O=C(c1cccc(-c2ccc3ncnc(Nc4ccc(OCc5cccc(F)c5)c(Cl)c4)c3c2)c1)N1CCOCC1,Trypanosoma cruzi,"intracellular amastigote growth, β-galactosidase CPRG","3T3, Tulahuen, β-galactosidase-expressing",96 h,3500 nM
CCOC(=O)c1cc(O)c(=O)c(O)cc1C,Hepatitis B virus,"viral replication, inhibitor, qPCR",HepDES19,,4300 nM
C[C@H](NC(=O)[C@@H](O)c1cc(F)cc(F)c1)C(=O)N[C@@H]1C(=O)N(C)c2ccccc2-c2ccccc21,Zika virus,viral replication,"Huh-7.5.1, nanoluciferase reporter",48 h,38.9 nM
Nc1nc(Nc2ccc(Cl)cc2)nn1S(=O)(=O)c1ccc2ccccc2c1,Zika virus,viral replication,"Vero 76, MR766",,> 25000 nM
CC1(F)CN(C(=O)Cn2c(=O)c(C(=O)NCc3ccc(Cl)cc3)cc3nc(N4CCN(CCN)C4=O)cnc32)C1,human cytomegalovirus,"viral replication, plaque reduction","HFF-1, AD169 US3-6-EGFP",240 h,211 nM
COC(=O)c1c(C)cc(O)c(=O)c(O)c1Br,Hepatitis B virus,"viral replication, inhibitor, qPCR",HepDES19,,7800 nM
CN1CCN(S(=O)(=O)c2ccc(-c3ccc4ncnc(Nc5ccc(OCc6ccccc6)cc5)c4c3)cc2)CC1,Trypanosoma cruzi,"intracellular amastigote growth, β-galactosidase CPRG","3T3, Tulahuen, β-galactosidase-expressing",96 h,9900 nM
O=c1c(O)ccccc1O,Hepatitis B virus,"viral replication, inhibitor, qPCR",HepDES19,,1700 nM
CCc1nn(C)c2nc(-c3ccc(C(=O)O)cc3)nc(NCc3ccccc3)c12,Cryptosporidium parvum,"parasite growth, immunofluorescence microscopy","HCT-8, Iowa","48 h post infection, compound added at 3 h",860 nM
CON(C(=O)c1cn(C)nc1C(F)F)C(C)Cc1c(Cl)cc(Cl)cc1Cl (centres unmarked),Podosphaera fuliginea,,Cucumis sativus,in vivo cucumber powdery mildew,0.862 µg/mL
COC(=O)c1c(C)cc(O)c(=O)c(O)c1C(=O)OC,Hepatitis B virus,"viral replication, inhibitor, qPCR",HepDES19,,2700 nM
CCC1(CC)CC(=O)N(C2c3cc(C(=O)NC4c5ccccc5CC4O)ccc3OC2(C)COC)C(=N)N1 (centres unmarked),Plasmodium falciparum,parasite growth,CAM3 REV,,0.5 nM
Nc1nc(Nc2ccc(Cl)c(Cl)c2)nn1S(=O)(=O)c1ccc2ccccc2c1,dengue virus,viral replication,"Huh-7, New Guinea C",,4300 nM
COc1ccc(Nc2ncnc3ccc(-c4ccc(S(=O)(=O)N5CCN(C)CC5)cc4)cc23)cc1Cl,Trypanosoma cruzi,"intracellular amastigote growth, β-galactosidase CPRG","3T3, Tulahuen, β-galactosidase-expressing",96 h,> 50000 nM
Cc1cc(O)c(=O)c(O)cc1C(=O)c1ccccc1,Hepatitis B virus,"viral replication, inhibitor, qPCR",HepDES19,,900 nM
Fc1cccc(COc2ccc(Nc3ncnc4ccc(-c5cccc(CN6CCOCC6)c5)cc34)cc2Cl)c1,Trypanosoma cruzi,"intracellular amastigote growth, β-galactosidase CPRG","3T3, Tulahuen, β-galactosidase-expressing",96 h,2400 nM
O=C(NNc1ccc(Cl)cc1)c1nnc(CC23CC4CC(CC(C4)C2)C3)o1,Rhizoctonia solani,microbial growth,,,> 25 µg/mL
S=C=NCc1ccccc1,Phelipanche ramosa,"seed germination, stimulant",seeds,,71 nM

# Excerpt of the above:
SMILES,organism,assay,system,setting,EC50
O=C(CCN(CCC(=O)N[C@@H](Cc1c[nH]c2ccccc12)C(=O)O)C(=O)CCN(CCC(=O)N(CCC(=O)N[C@@H](Cc1c[nH]c2ccccc12)C(=O)O)CCC(=O)N[C@@H](Cc1c[nH]c2ccccc12)C(=O)O)C(=O)[C@H]1C[C@@H](C(=O)N(CCC(=O)N(CCC(=O)N[C@@H](Cc2c[nH]c3ccccc23)C(=O)O)CCC(=O)N[C@@H](Cc2c[nH]c3ccccc23)C(=O)O)CCC(=O)N(CCC(=O)N[C@@H](Cc2c[nH]c3ccccc23)C(=O)O)CCC(=O)N[C@@H](Cc2c[nH]c3ccccc23)C(=O)O)C[C@@H](C(=O)N(CCC(=O)N(CCC(=O)N[C@@H](Cc2c[nH]c3ccccc23)C(=O)O)CCC(=O)N[C@@H](Cc2c[nH]c3ccccc23)C(=O)O)CCC(=O)N(CCC(=O)N[C@@H](Cc2c[nH]c3ccccc23)C(=O)O)CCC(=O)N[C@@H](Cc2c[nH]c3ccccc23)C(=O)O)C1)N[C@@H](Cc1c[nH]c2ccccc12)C(=O)O,respiratory syncytial virus,viral replication,"HeLa cells, Long",,6700 ± 190 nM
COc1ccccc1-c1n[nH]c2nc(N[C@H]3CC[C@H](NS(=O)(=O)CC(C)C)CC3)ncc12,Leishmania donovani,cell growth,"promastigotes, LdBOB CYC9 overexpressing",,0.89 ± 0.02 nM
CC(C)(C)OCc1ccc(-c2ccc3ncnc(Nc4ccc(OCc5cccc(F)c5)c(Cl)c4)c3c2)cc1,Trypanosoma cruzi,"intracellular amastigote growth, β-galactosidase CPRG","3T3, Tulahuen, β-galactosidase-expressing",96 h,2200 nM
CC(=O)CCC1C(=O)NC(C(C)C)C(=O)NC(Cc2cc(O)cc(F)c2)C(=O)N2CCCC(N2)C(=O)OC(C(C)=CC=CC(=O)N2CCCCO2)CC=CC=CC(O)C(C)C1O (centres unmarked),Hepatitis C virus,viral replication,"Huh7, Con1 replicon",10% human serum,15 ± 2 nM
